Measured values gathered from unrelated publications.
± gives the spread as reported.

| Compound | cell line | test | conditions | EC50 |
| --- | --- | --- | --- | --- |
| CC(C)C[C@@H](/C=C/[C@H](Cc1ccccc1)C(=O)N1CCC[C@H]1C(=O)N[C@H](C(=O)N[C@@H](CCCNC(=O)OCc1ccccc1)C(=O)NC1CC(C)(C)N([O])C(C)(C)C1)C(C)C)NC(=O)OCC[S+]([O-])CC1(C)COC1 (some centres unmarked) | HT-1080 | ferroptosis protection | added: erastin 10 µM | 3.5 µM |
| FC(F)(F)c1ccnc(-c2cc(C(F)(F)F)ccn2)c1.FC(F)(F)c1ccnc(-c2cc(C(F)(F)F)ccn2)c1.[Cl-].[Cl-].[Ru+2].c1csc(-c2ccc(-c3ccc(-c4nc5c6cccnc6c6ncccc6c5[nH]4)s3)s2)c1 | SK-MEL-28 | cell viability | normoxia, added: red light 633 nm, 100 J/cm2 | 7.02 µM |
| Cc1ccccc1-c1cn([C@@H]2O[C@H](CO)[C@@H](O)[C@H]2O)c2ncnc(N)c12 | HEK | cytotoxicity | – | > 200 µM |
| CSCCC(C(=O)Nc1ccc2c(c1)OCCO2)N1Cc2ccccc2C1=O (centres unmarked) | MEF with dox-inducible FLAG-LMNB1 | lamin B1 reduction, high-content imaging, measured: lamin B1 | 48 h, added: doxycycline | 8.7 ± 2.6 µM |
| CCc1c2c(nc3ccc(O)cc13)-c1cc3c(c(=O)n1C2)COC(=O)[C@@]3(CC)OC(=O)[C@H](N)C(C)C | CT26 | cell viability, MTT | 72 h | 52.1 µM |
| Nc1ncnc2c1c(-c1ccc(F)c(Cl)c1)cn2[C@@H]1O[C@H](CO)[C@@H](O)[C@H]1O | HEK | cytotoxicity | – | > 200 µM |
| Cn1cncn1.[Ru+2].c1cc(-c2ccc3ccccc3n2)nc(-c2ccc3ccccc3n2)c1.c1ccc2cc3nc4c5cccnc5c5ncccc5c4nc3cc2c1 | 4T1 | cell viability, MTT | 4 h, green light, 10 min | 14 ± 1 µM |
| Ic1cccc2cnccc12 | mouse DRG neurons axotomized | axon fragmentation | 2 h pretreatment, 16 h post-axotomy | 2.1 µM |
| C(=C/c1ccccc1)/c1ccccc1 | THP-1 | apoptosis, flow cytometry, measured: caspase-3 activity | 24 h, 50% apoptosis induction | > 50 µM |
| C=C1[C@H](O)CC(=C/C=C2\CCC[C@]3(C)[C@@H]([C@H](C)CCCC)CC[C@@H]23)C[C@H]1O | HL-60 | cell differentiation, NBT reduction | 50% maturation | 0.1 µM |
| Nc1ncnc2c1c(-c1ccc(F)cc1)cn2[C@H]1C[C@H](O)[C@@H](CO)O1 | HEK | cytotoxicity | – | > 200 µM |
| C=C1[C@H](O)CC(=C/C=C2\CCC[C@]3(C)[C@@H]([C@@H](C)CCCCO)CC[C@@H]23)C[C@H]1O | HL-60 | cell differentiation, NBT reduction | 50% maturation | 0.003 µM |
| Nc1ncnc2c1c(-c1ccc(Cl)c(Cl)c1)cn2[C@H]1C[C@H](O)[C@@H](CO)O1 | HEK | cytotoxicity | – | > 200 µM |
| CCc1noc(CC)c1C(=O)O[C@H]1C(C)=C[C@]23C(=O)[C@@H](C=C(CO)[C@@H](O)[C@]12O)[C@H]1[C@@H](C[C@H]3C)C1(C)C | primary human epidermal keratinocytes | cell growth inhibition, CyQUANT DNA content | 72 h | 0.0011 µM |

A few entries again:
| Compound | cell line | test | conditions | EC50 |
| --- | --- | --- | --- | --- |
| Nc1ncnc2c1c(-c1ccc(F)cc1)cn2[C@H]1C[C@H](O)[C@@H](CO)O1 | HEK | cytotoxicity | – | > 200 µM |
